Measured values pooled from the literature.
Compare with care: the assays were run in different laboratories. Numbers after ± are the reported error.
Cell line: A2780

| Compound | assay | setting | IC50 [µM] |
| --- | --- | --- | --- |
| CC(C)c1cccc(C(C)C)c1[N+]#[C][Pt-]([Cl])([Cl])=[C](Nc1ccc(CN[C](Nc2c(C(C)C)cccc2C(C)C)=[Au][Cl])cc1)Nc1c(C(C)C)cccc1C(C)C | cell growth or viability |  | 13.4 |
| C[C@@H]1CC[C@@H]([C@@](O)(CNCc2ccc(F)cc2)COCc2ccccc2)[C@H](OCc2ccccc2)C1 | cell growth or viability, MTT | 72 h | 4.3 |
| CC(C)c1cccc(C(C)C)c1[N+]#[C][Pd-]([Cl])([Cl])=[C](Nc1ccc(CN[C](Nc2c(C(C)C)cccc2C(C)C)=[Au][Cl])cc1)Nc1c(C(C)C)cccc1C(C)C | cell growth or viability |  | > 100 |
| C[N+]1(C)CC[NH2+][Pt-2]1([OH])([Cl])([Cl])[O]C(=O)CCC(=O)O | cell viability, EZ4U | 96 h | 31 ± 6 |
| Cc1cc(C)c(N[C](NCc2cccc(N[C](Nc3c(C(C)C)cccc3C(C)C)=[Pd-]([Cl])([Cl])[C]#[N+]c3c(C(C)C)cccc3C(C)C)c2)=[Au][Cl])c(C)c1 | cell growth or viability |  | > 100 |
| CC(=O)OC[C@]1(C)CCC[C@]2(COC(C)=O)[C@@H]1CC[C@@]13C[C@@H](C[C@H](O)[C@H]12)[C@@H](C)C3=O | cell growth or viability, MTT |  | > 20 |
| CC(C)(C)N=[C](NCc1cccc(N)c1)[AuH][Cl] | cell growth or viability |  | > 100 |
| [Cl][Au].[Se]=c1n(C23CC4CC(CC(C4)C2)C3)ccn1C12CC3CC(CC(C3)C1)C2 | cell growth or viability, MTT | 72 h | 0.6 |
| [Fe+2].c1ccc(P(=NCc2ccccn2)(c2ccccc2)[c-]2cccc2)cc1.c1ccc(P(=NCc2ccccn2)(c2ccccc2)[c-]2cccc2)cc1 | cell growth or viability, MTT | 74 h | 5.3 |
| C#CCN(C(=O)OCc1ccc(F)cc1)[c-]1cccc1.[Fe+2].c1cc[cH-]c1 | cell growth or viability, MTT | 48 h | 16.7 |
| CC(C)c1cccc(C(C)C)c1[N+]#[C][Pd-]([Cl])([Cl])=[C](Nc1cccc(CN[C](NC(C)(C)C)=[Au][Cl])c1)Nc1c(C(C)C)cccc1C(C)C | cell growth or viability |  | > 100 |
| CC12CCC3c4ccc(OCCCOc5no[n+]([O-])c5S(=O)(=O)c5ccccc5)cc4CCC3C1CCC2O (stereo not shown) | cell growth or viability, MTT | 48 h | 0.053 |
| Cc1cc(C)c([N+]#[C][Pd-2]([Cl])([Cl])[C]#[N+]c2c(C)cc(C)cc2C)c(C)c1 | cell growth or viability |  | > 100 |
| COc1ccccc1CNC[C@](O)(COCc1ccccc1)[C@@H]1CC[C@@H](C)C[C@H]1OCc1ccccc1 | cell growth or viability, MTT | 72 h | 2.2 |
| CC(C)c1cccc(C(C)C)c1N1CCN(c2c(C(C)C)cccc2C(C)C)C1=[Se].[Cl][Au] | cell growth or viability, MTT | 72 h | 0.6 |
| Oc1ccccc1-c1nn(-c2ccccn2)[n+](-c2ccccc2)n1 | cell growth or viability, resazurin | 72 h | 12 |

| Compound | assay | setting | IC50 [µM] |
| --- | --- | --- | --- |
| C[C@@H]1CC[C@@H]([C@](O)(CNCc2cccc(F)c2)COCc2ccccc2)[C@H](OCc2ccccc2)C1 | cell growth or viability, MTT | 72 h | 1.4 |
| Cc1c(C)n(-c2c(C(C)C)cccc2C(C)C)c(=[Se])n1-c1c(C(C)C)cccc1C(C)C.[Cl][Au] | cell growth or viability | 72 h, 3D culture | 9 |
| O=C(OCc1ccc(F)cc1)N(Cc1cccc(CN2CCCCC2)c1)[c-]1cccc1.[Fe+2].c1cc[cH-]c1 | cell growth or viability, MTT | 48 h | 7 |
| C=C1C(=O)[C@@]23CC[C@@H]4C(C)(C)CCC[C@@]4(CO)[C@@H]2[C@@H](O)C[C@@H]1C3 | cell growth or viability, MTT |  | > 20 |
| CC(C)c1cccc(C(C)C)c1[N+]#[C][Pd-]([Cl])([Cl])=[C](Nc1cccc(CN[C](Nc2c(C(C)C)cccc2C(C)C)=[Au][Cl])c1)Nc1c(C(C)C)cccc1C(C)C | cell growth or viability |  | > 100 |
| c1ccc(-c2nn(-c3nc4ccccc4s3)[n+](-c3ccccc3)n2)cc1 | cell growth or viability, resazurin | 72 h | 23 |
| C1=CCC=C1.[Cl][Pd-2]1([Cl])[N+](=P(c2ccccc2)(c2ccccc2)C2C=CC=C2)Cc2cccc[n+]21.[Fe+2] | cell growth or viability, MTT | 74 h | 17.4 |
| CC(C)=CCC1=C([O-])C(=O)c2ccccc2C1=O.O=[N+]([O-])[O-].[Cu+2].c1ccc(-c2cccc(-c3ccccn3)n2)nc1 | cell viability, MTT | 48 h | 0.5 ± 0.1 |
| COc1cccc(CNC[C@](O)(COCc2ccccc2)[C@@H]2CC[C@@H](C)C[C@H]2OCc2ccccc2)c1 | cell growth or viability, MTT | 72 h | 0.85 |
| Cc1cc(C)c(N[C](NCc2cccc(N[C](Nc3c(C(C)C)cccc3C(C)C)=[Pt-]([Cl])([Cl])[C]#[N+]c3c(C(C)C)cccc3C(C)C)c2)=[Au][Cl])c(C)c1 | cell growth or viability |  | > 100 |
| Cn1ccn(N=Cc2ccccc2SSc2ccccc2C=Nn2ccn(C)c2=S)c1=S | cell growth or viability, MTT | 72 h | 0.21 |
| CC(C)c1cccc(C(C)C)c1-n1c(Cl)c(Cl)n(-c2c(C(C)C)cccc2C(C)C)c1=[Se].[Cl][Ag] | cell growth or viability | 72 h, 3D culture | 29.1 |
| COc1ccc(CNC[C@@](O)(COCc2ccc(F)cc2)[C@@H]2CC[C@@H](C)C[C@H]2OCc2ccc(F)cc2)cc1 | cell growth or viability, MTT | 72 h | 1.4 |
| CC(C)c1cccc(C(C)C)c1-n1ccn(-c2c(C(C)C)cccc2C(C)C)c1=[Se].[Cl][Ag] | cell growth or viability | 72 h, 3D culture | 21.6 |
| C[N+]1(C)CC[NH2+][Pt-2]1([OH])([Cl])([Cl])[O]C(=O)CCC(=O)OCCO | cell viability, EZ4U | 96 h | 22 ± 2 |

Repeated from above:
| Compound | assay | setting | IC50 [µM] |
| --- | --- | --- | --- |
| CC12CCC3c4ccc(OCCCOc5no[n+]([O-])c5S(=O)(=O)c5ccccc5)cc4CCC3C1CCC2O (stereo not shown) | cell growth or viability, MTT | 48 h | 0.053 |
| C[C@@H]1CC[C@@H]([C@@](O)(CNCc2ccc(F)cc2)COCc2ccccc2)[C@H](OCc2ccccc2)C1 | cell growth or viability, MTT | 72 h | 4.3 |
| Oc1ccccc1-c1nn(-c2ccccn2)[n+](-c2ccccc2)n1 | cell growth or viability, resazurin | 72 h | 12 |
